Experimental data gathered from unrelated publications.
Protocols differ between the studies behind these lines.
Target: Serine/threonine-protein kinase A-Raf (ARAF, Homo sapiens, UniProt P10398)
Residues used in one study (P10398 1-606): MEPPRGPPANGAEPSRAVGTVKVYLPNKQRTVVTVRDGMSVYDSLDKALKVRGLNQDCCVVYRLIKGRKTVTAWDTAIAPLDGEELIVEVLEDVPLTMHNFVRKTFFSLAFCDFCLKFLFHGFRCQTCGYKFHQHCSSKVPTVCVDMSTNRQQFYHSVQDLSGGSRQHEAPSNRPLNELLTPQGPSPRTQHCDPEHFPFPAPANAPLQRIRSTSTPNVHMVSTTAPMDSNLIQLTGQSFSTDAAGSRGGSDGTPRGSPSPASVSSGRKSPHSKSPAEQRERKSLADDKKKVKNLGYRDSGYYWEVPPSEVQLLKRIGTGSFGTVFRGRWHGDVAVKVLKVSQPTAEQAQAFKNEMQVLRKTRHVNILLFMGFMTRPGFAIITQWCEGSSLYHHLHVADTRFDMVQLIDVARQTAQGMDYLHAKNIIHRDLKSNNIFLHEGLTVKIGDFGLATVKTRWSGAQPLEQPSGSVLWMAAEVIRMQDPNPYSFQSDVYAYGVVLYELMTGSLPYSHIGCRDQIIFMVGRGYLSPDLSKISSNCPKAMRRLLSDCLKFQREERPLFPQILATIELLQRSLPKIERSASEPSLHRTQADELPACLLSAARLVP

For `Cc1nc2c(F)cc(-c3nc(Nc4ccc(CNC(=O)CCCCCCC(=O)NO)cc4)ncc3F)cc2n1C(C)C`, the inhibition was 66% (enzyme activity, inhibitor; 1 µM).
`COc1ccc(C(=O)/C=C/c2ccccc2-c2c[nH]c3ccc(C#N)cc23)c(O)c1` has an inhibition of 6% (enzyme activity, inhibitor; 20 µM).
For `CN1CC[C@@H](COc2cnc(C#N)cc2-c2ccn3nc(NC(=O)C4CC4)cc3c2)C1`, the inhibition was 0% (enzyme activity, inhibitor; 1 µM).
`O=C(Cc1ccc(OCc2ccccc2)cc1)NC1(C(=O)O)CCN(C(=O)c2ccc(-c3cccc(Cl)c3)cc2)CC1` — result for “activity vs control”: 91% (enzyme activity, inhibitor; 10 µM).
`NC(=O)C[C@H]1CCc2sc3ncnc(O[C@H]4CC[C@H](N5CCOCC5)CC4)c3c21` has an inhibition of 11% (enzyme activity, inhibitor; 10 µM).
For `Nc1ncc(-c2cc(-c3cnn(CC(F)(F)F)c3)ncc2F)nc1C(=O)NC1CNCC(F)C1` (stereo not shown), the remaining activity was 81.8% (enzyme activity; 1 µM; baseline: DMSO control).
`CNC(=O)C[C@H](Cc1ccc(C#N)cc1)NC(=O)c1cc(-c2ccc(CN[C@H](C)c3ccc(C)cc3)o2)ccc1Cl`: “activity vs control” 99% (enzyme activity, inhibitor; 1 µM).
`C=CC(=O)Nc1cc(-c2nn(C3CCN(CCNC(=O)[C@H](C)CCC45CC6CC(CC(C6)C4)C5)CC3)c3ncnc(N)c23)ccc1Oc1ccccc1` gave an inhibition of -39.6% (inhibitor, KiNativ profiling; biochemical; 2 µM).
The inhibition of `NC(=O)[C@@H](O)C[C@H]1CCc2sc3ncnc(O[C@H]4CC[C@H](N5CCOCC5)CC4)c3c21` is reported as 10% (enzyme activity, inhibitor; 10 µM).
With `CS(=O)(=O)Nc1cccc(-c2csc3cnc(Nc4ccc(N5CCN(CCCCCOc6cccc7c6C(=O)N(C6CCC(=O)NC6=O)C7=O)CC5)cc4)nc23)c1` (stereo not shown) the inhibition was -11% (probe labelling, inhibitor, KiNativ chemoproteomics; MOLT-4; 1 µM).

Some of these lines once more:
For `Nc1ncc(-c2cc(-c3cnn(CC(F)(F)F)c3)ncc2F)nc1C(=O)NC1CNCC(F)C1` (stereo not shown), the remaining activity was 81.8% (enzyme activity; 1 µM; baseline: DMSO control).
